Results gathered from unrelated publications.
Each line is one published result; not all experiments were run side by side. ± marks the error that the study gave. Converted amounts (≈) assume the structure as drawn.
IGHG1: Immunoglobulin heavy constant gamma 1 (IGHG1, Homo sapiens, UniProt P01857)
UniProt P0DMS8, sequence (whole entry, looked up): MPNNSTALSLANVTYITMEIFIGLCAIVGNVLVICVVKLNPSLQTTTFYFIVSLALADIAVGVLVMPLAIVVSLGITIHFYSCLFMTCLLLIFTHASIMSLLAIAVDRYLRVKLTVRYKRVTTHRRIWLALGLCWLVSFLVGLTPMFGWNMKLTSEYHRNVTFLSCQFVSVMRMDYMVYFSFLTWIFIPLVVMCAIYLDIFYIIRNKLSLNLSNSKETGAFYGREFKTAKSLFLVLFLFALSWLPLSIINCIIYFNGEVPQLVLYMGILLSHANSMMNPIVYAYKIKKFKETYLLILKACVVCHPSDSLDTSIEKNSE
UniProt P14416, sequence (whole entry, looked up): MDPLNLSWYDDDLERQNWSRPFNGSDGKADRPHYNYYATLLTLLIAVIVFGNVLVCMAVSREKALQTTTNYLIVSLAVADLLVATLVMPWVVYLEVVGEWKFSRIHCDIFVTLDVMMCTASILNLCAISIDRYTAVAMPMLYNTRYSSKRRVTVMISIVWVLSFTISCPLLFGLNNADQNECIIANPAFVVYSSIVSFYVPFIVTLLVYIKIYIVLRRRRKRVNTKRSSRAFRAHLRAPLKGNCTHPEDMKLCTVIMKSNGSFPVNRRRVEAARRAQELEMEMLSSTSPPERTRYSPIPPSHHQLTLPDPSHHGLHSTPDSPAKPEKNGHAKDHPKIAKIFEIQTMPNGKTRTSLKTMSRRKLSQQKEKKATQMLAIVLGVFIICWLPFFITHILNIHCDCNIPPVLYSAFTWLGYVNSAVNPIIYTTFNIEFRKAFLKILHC
UniProt P28222, sequence (whole entry, looked up): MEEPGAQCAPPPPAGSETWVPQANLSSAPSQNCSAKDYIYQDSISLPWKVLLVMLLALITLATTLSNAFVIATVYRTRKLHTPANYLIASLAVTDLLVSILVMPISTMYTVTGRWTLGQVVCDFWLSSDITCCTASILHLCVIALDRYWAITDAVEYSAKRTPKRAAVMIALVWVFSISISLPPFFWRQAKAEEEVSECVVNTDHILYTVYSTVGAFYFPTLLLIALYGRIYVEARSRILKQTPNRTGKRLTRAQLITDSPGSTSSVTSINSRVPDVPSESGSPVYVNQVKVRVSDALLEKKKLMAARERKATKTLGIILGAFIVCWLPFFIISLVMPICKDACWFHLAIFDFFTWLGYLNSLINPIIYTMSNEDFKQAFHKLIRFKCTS
UniProt P41145, sequence (whole entry, looked up): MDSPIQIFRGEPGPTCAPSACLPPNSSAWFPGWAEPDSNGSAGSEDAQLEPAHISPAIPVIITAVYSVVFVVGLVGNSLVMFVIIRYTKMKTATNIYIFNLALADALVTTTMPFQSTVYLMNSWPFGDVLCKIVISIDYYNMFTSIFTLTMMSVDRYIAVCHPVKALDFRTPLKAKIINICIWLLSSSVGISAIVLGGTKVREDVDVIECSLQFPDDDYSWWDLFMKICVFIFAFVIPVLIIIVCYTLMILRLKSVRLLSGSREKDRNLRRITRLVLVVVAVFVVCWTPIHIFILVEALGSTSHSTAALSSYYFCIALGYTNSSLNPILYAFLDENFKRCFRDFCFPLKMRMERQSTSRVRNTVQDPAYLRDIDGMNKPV
UniProt P35462, sequence (whole entry, looked up): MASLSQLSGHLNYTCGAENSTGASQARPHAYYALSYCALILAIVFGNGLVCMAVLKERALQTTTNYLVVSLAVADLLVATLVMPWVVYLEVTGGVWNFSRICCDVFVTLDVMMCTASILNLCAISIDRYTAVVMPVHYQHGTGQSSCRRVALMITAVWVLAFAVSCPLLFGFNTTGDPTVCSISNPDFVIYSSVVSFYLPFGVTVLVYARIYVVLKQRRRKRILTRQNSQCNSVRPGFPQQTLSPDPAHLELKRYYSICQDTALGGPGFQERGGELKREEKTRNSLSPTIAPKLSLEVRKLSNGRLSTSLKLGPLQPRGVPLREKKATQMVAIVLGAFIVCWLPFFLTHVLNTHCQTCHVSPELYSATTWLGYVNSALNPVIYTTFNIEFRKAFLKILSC
UniProt P01317, sequence (whole entry, looked up): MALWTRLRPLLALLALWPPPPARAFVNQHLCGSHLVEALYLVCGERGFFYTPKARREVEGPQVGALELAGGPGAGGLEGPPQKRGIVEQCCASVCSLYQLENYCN
UniProt Q9UQB9, sequence (whole entry, looked up): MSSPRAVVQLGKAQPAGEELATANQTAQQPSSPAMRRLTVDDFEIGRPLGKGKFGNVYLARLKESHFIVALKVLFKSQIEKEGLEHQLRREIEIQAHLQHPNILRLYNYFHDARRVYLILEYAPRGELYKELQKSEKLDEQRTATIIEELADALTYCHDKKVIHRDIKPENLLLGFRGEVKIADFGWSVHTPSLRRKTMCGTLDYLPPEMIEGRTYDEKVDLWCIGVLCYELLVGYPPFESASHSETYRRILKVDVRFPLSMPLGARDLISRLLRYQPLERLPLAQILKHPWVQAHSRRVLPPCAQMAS
UniProt Q9Y5N1, sequence (whole entry, looked up): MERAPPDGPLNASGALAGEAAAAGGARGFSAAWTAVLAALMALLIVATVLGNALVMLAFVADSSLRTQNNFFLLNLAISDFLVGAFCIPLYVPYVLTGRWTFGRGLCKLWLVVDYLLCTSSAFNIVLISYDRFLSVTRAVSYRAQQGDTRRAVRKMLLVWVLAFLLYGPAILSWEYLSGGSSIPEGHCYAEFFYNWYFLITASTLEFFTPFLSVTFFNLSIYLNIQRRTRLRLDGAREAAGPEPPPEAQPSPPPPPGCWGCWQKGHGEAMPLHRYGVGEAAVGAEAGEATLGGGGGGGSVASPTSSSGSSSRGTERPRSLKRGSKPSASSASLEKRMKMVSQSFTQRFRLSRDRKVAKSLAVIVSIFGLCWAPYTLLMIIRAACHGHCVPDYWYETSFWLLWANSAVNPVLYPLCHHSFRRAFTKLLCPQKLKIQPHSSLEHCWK
UniProt P36544, sequence (whole entry, looked up): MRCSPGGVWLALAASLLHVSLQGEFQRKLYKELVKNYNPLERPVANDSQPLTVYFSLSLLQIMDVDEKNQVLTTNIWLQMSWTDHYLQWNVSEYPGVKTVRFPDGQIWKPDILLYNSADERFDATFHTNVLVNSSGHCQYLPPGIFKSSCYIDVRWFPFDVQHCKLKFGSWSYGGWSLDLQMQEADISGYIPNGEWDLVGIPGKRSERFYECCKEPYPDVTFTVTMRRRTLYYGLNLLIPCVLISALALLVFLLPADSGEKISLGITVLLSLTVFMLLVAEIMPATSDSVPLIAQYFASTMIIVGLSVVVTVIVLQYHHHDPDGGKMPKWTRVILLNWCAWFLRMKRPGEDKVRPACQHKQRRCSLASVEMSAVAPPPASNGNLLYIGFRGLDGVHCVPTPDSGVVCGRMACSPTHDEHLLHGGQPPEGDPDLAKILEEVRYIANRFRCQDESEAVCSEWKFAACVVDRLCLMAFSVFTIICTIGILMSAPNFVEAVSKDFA
UniProt P23977, sequence (whole entry, looked up): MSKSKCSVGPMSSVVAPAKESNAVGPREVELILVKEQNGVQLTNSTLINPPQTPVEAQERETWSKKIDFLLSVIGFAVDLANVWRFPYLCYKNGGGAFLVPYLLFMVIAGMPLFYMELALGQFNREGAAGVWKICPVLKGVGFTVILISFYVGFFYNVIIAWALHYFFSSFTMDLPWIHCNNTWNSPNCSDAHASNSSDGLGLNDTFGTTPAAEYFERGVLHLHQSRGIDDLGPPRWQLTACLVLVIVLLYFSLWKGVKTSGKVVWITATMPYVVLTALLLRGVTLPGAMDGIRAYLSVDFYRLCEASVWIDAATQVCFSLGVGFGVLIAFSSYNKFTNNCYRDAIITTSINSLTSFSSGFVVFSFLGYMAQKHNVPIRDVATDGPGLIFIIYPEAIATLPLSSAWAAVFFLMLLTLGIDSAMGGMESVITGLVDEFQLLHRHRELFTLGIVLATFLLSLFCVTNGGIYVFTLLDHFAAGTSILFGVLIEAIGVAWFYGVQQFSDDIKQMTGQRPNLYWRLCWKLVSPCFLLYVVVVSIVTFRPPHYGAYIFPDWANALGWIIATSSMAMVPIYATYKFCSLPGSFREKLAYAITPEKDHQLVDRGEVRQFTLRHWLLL
UniProt O14757, sequence (whole entry, looked up): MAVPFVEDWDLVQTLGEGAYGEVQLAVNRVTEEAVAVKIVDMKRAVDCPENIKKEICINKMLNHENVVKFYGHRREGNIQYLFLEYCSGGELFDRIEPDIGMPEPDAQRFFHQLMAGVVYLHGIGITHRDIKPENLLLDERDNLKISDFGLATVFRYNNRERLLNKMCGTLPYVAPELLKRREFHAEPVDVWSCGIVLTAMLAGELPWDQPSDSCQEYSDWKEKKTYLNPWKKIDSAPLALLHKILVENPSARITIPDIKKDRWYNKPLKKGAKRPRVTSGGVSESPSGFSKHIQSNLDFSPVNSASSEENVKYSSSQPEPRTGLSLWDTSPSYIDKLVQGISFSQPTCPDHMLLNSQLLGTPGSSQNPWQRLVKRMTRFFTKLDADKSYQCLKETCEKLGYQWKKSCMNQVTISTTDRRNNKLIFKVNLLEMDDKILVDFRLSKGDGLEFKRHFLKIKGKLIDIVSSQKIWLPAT
UniProt Q01726, sequence (whole entry, looked up): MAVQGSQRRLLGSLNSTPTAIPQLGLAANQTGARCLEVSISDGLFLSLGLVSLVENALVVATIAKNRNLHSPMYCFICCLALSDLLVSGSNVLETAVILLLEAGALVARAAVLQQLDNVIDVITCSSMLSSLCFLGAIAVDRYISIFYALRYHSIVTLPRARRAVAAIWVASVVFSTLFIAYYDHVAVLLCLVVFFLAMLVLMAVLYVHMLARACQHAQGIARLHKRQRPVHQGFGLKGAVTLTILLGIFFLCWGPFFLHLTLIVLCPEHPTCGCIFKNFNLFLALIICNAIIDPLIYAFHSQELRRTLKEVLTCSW

Molecule	target or system	assay	test system	conditions	how to read	measurement	value
CC(=O)NCC(=O)N1CCC[C@H]1C(=O)N[C@@H](CC(=O)O)C(=O)N[C@H]1CSSC[C@@H](C(=O)N[C@@H](C)C(=O)N[C@@H](Cc2ccccc2)C(=O)N[C@@H](Cc2c[nH]cn2)C(N)=O)NC(=O)[C@H](Cc2c[nH]c3ccccc23)NC(=O)[C@H](C(C)C)NC(=O)[C@H](CC(C)C)NC(=O)[C@H](CCC(=O)O)NC(=O)CNC(=O)[C@H](CCCCN)NC(=O)[C@H](Cc2c[nH]cn2)NC(=O)[C@H](Cc2ccc(O)cc2)NC(=O)[C@H](C)NC1=O	IGHG1	binding, SPR		pH 7.4, with: immobilized Herceptin		Kd	622 ± 5 nM
CCN(CCO)CCCOc1ccc2c(Nc3cc(CC(=O)Nc4cccc(F)c4)[nH]n3)ncnc2c1	Aurora kinase C (AURKC, Homo sapiens, UniProt Q9UQB9)	degradation, degrader, Western blot, refers to: AURKC	HPAF-II	1 µM, 24 h		protein level	no effect
C[C@@H](N)Cc1c[nH]cn1.Cl.Cl	HRH3 (Homo sapiens, UniProt Q9Y5N1)	radioligand binding		concentration not given, off-target panel		inhibition	100%
NCCc1c[nH]c2ccc(O)cc12	HTR1B (Homo sapiens, UniProt P28222)	binding, antagonist, radioligand binding				Hill coefficient	0.4
CCCC[C@H]1NC(=O)[C@H](Cc2ccc(F)cc2)NC(=O)[C@H](CCCNC(=N)N)NC(=O)[C@@H](Cc2ccc3ccccc3c2)NC(=O)[C@H](CCCNC(=N)N)NC(=O)[C@H](CCCNC(=N)N)NC(=O)[C@H](CCC(N)=O)NC(=O)C[C@@H](CCc2ccccc2)NC(=O)[C@@H]2CCCCN2C(=O)C(=O)C(C)(C)COC1=O	TCPTP	fluorescence polarization		up to 20 µM		binding	no binding
Oc1ccc2c3c1O[C@H]1c4[nH]c5c(c4C[C@@]4(O)[C@@H](C2)N(CC2CC2)CC[C@]314)C[C@@]1(O)[C@H]2Cc3ccc(O)c4c3[C@@]1(CCN2CC1CC1)[C@H]5O4	OPRK1 (Homo sapiens, UniProt P41145)			with: 0 mM sodium		Emax	28.1 ± 4.62%
insulin	Insulin (INS, Bos taurus, UniProt P01317)	circular dichroism		0 min		β-sheet content	21.5%
CC(=O)NCC(=O)N1CCC[C@H]1C(=O)N[C@@H](CC(=O)O)C(=O)N[C@H]1CSSC[C@@H](C(=O)N[C@H](C(=O)N[C@@H](Cc2ccccc2)C(=O)N[C@@H](C)C(N)=O)[C@@H](C)O)NC(=O)[C@H](Cc2c[nH]c3ccccc23)NC(=O)[C@H](C(C)C)NC(=O)[C@H](CC(C)C)NC(=O)[C@H](CCC(=O)O)NC(=O)CNC(=O)[C@H](CCCCN)NC(=O)[C@H](Cc2c[nH]cn2)NC(=O)[C@H](Cc2ccc(O)cc2)NC(=O)[C@H](C)NC1=O	IGHG1	binding, SPR		pH 7.4, with: immobilized Herceptin		Kd	696 ± 2 nM
CN[C@@H]1C[C@H]2O[C@@](C)([C@@H]1OC)n1c3ccccc3c3c4c(c5c6ccccc6n2c5c31)C(=O)NC4	CHEK1 (Homo sapiens, UniProt O14757)	KINOMEscan competition binding		0.05 µM	baseline: control	remaining binding	0%
CC[C@H](C)[C@H](NC(=O)[C@H](CCCCN)NC(=O)[C@H](CCC(N)=O)NC(=O)[C@H](Cc1ccccc1)NC(=O)[C@@H](NC(=O)[C@H](CCCCN)NC(=O)[C@H](CCCCN)NC(=O)[C@H](CC(C)C)NC(=O)[C@H](C)NC(=O)[C@H](CC(N)=O)NC(=O)[C@@H](N)CC(C)C)C(C)C)C(=O)N[C@@H](Cc1c[nH]cn1)C(=O)N[C@@H](CCC(=O)O)C(=O)N[C@@H](C)C(N)=O	Staphylococcus aureus	broth microdilution	ATCC 25923	18 h, 37 °C		MIC	16 µM (≈ 26.2 µg/mL)
CNC(=O)[C@H]1O[C@@H](n2cnc3c(NCc4cccc(I)c4)nc(Cl)nc32)[C@H](O)[C@@H]1O	ADORA3 (Homo sapiens, UniProt P0DMS8)	radioligand displacement	CHO membranes	with: [3H]PSB-11, 1 mM GTP		Hill slope	-1.1 ± 0.1
CCN1C[C@]2(COC(=O)c3ccccc3N3C(=O)C[C@H](C)C3=O)CC[C@H](OC)[C@@]34[C@@H]5C[C@H]6[C@H](OC)[C@@H]5[C@](O)(C[C@@H]6OC)[C@](O)([C@@H](OC)[C@H]23)[C@@H]14	CHRNA7 (Homo sapiens, UniProt P36544)	ion current, antagonist, whole-cell patch clamp	HEK-293T expressing CHRNA7	concentration not given		inhibition	99.3%
C[C@H]1[C@@H](CC(C[C@H]2O[C@@H]3C[C@]4(C)CC[C@H]5[C@H](C)CC[C@@H]([C@H]2C)[C@@]35OO4)CS(=O)(=O)c2ccc(CO)cc2)O[C@@H]2C[C@]3(C)CC[C@H]4[C@H](C)CC[C@@H]1[C@@]24OO3 (stereo partly drawn)	Plasmodium berghei		ANKA, infected mice	oral, 144 mg/kg single dose		mean survival time	30 days
Br.CCCN(CCC)C1CCc2ccc(O)cc2C1 (racemic)	DRD3 (Homo sapiens, UniProt P35462)	radioligand binding		concentration not given, off-target panel		inhibition	98.4%
COC(=O)[C@H]1[C@@H](OC(=O)c2ccccc2)C[C@@H]2CC[C@H]1N2C	Na+ channel rabbit brain	BTX-activated channels			baseline: Kd (+) over Kd (-)	selectivity ratio	~20
O=C(N[C@H](Cc1ccc(Cl)cc1)C(=O)N1CCC(Cn2cncn2)(C2CCCCC2)CC1)[C@H]1Cc2ccccc2CN1	MC1R (Homo sapiens, UniProt Q01726)	cAMP production, agonist	A-375		baseline: MT-II	efficacy	49 ± 4%
CCCN(CCC)C1CCc2ccc(O)cc2C1 (stereo not drawn)	DRD2 (Homo sapiens, UniProt P14416)	binding, agonist, radioligand binding				Hill coefficient	0.6
C[C@H](N)C(=O)c1ccccc1	Slc6a3 (Rattus norvegicus, UniProt P23977)	dopamine uptake, inhibitor	rat caudate synaptosomes	with: 5 nM [3H]dopamine		IC50	357 nM

For quick reference, copied from above:
Molecule	target or system	assay	test system	conditions	how to read	measurement	value
CC[C@H](C)[C@H](NC(=O)[C@H](CCCCN)NC(=O)[C@H](CCC(N)=O)NC(=O)[C@H](Cc1ccccc1)NC(=O)[C@@H](NC(=O)[C@H](CCCCN)NC(=O)[C@H](CCCCN)NC(=O)[C@H](CC(C)C)NC(=O)[C@H](C)NC(=O)[C@H](CC(N)=O)NC(=O)[C@@H](N)CC(C)C)C(C)C)C(=O)N[C@@H](Cc1c[nH]cn1)C(=O)N[C@@H](CCC(=O)O)C(=O)N[C@@H](C)C(N)=O	Staphylococcus aureus	broth microdilution	ATCC 25923	18 h, 37 °C		MIC	16 µM (≈ 26.2 µg/mL)
CNC(=O)[C@H]1O[C@@H](n2cnc3c(NCc4cccc(I)c4)nc(Cl)nc32)[C@H](O)[C@@H]1O	ADORA3 (Homo sapiens, UniProt P0DMS8)	radioligand displacement	CHO membranes	with: [3H]PSB-11, 1 mM GTP		Hill slope	-1.1 ± 0.1
